Measurements gathered from unrelated publications.
Every numbered part comes from another study and shows a few of its results, in no order. Positions count from the first letter of the parent shown.

Series 1 — technique: aptamer microarray, sandwich; molecule type: DNA with 2'F-ANA; medium: in vitro; concentration: 200 nM; together with: Cy3 exosite-II aptamer, 400 nM; direction: higher = stronger binding; strand: GGTTGGTGTGGTTGG
Target: Prothrombin, mature alpha-thrombin (F2, Homo sapiens, UniProt P00734)
Setting: whole 15-mer aptamer, many near background
Modification	mean fluorescence intensity [a.u.]
2'F-ANA at 1 3 4 8 9 10 11 12 13 14	61.7
2'F-ANA at 3 4 6 9 15	495
2'F-ANA at 1 3 5 6 10	45.2
2'F-ANA at 4 5 7 8 11 12 13 15	85.3
2'F-ANA at 1 2 3 6 7 8 10 12 15	91.3
2'F-ANA at 2 4 7 8 10 11 12 13 14	63.2
2'F-ANA at 1 2 3 4 7 9 10 12 15	74.4
2'F-ANA at 1 2 4 5 6 7 8 9 10 13 14	70.8
2'F-ANA at 2 5 6 9 10 12 13	48.5
2'F-ANA at 1 7 13 14 15	56.8
2'F-ANA at 2 3 4 5 9 10 11 14	53.3
2'F-ANA at 1 4 6 7 10 12 13 14	43.8
2'F-ANA at 1 2 3 4 5 7 8 9 12	143
2'F-ANA at 1 2 4 6 8 9 11 14	52.4
2'F-ANA at 1 2 8 9 10 11 12 13 15	79.8
2'F-ANA at 1 3 6 8 11 12 13	649
2'F-ANA at 9 10 13	170
2'F-ANA at 3 4 6 14	276
2'F-ANA at 2 5 7 8 10 11 12 13	93.9
2'F-ANA at 2 3 4 5 8 12 13 14	53.7
2'F-ANA at 1 6 7 8 9 10 12 14 15	51.2
2'F-ANA at 3 5 6 8 9 13 15	82.1

Series 2 — technique: protein-binding microarray; molecule type: double-stranded DNA, one strand shown; medium: in vitro; concentration: 2540 nM top; setting: 60-bp whole probe; together with: salmon DNA 0.4 mg/ml; baseline: random background probes; direction: higher = stronger binding; constant ends, left off below: GCCTAGCAC … GTCTTGATTCGCTTGACGCTGCTG
Target: Interferon regulatory factor 3, full length, phosphomimetic (IRF3, Homo sapiens, UniProt Q14653, residues 1-427, S386D/S396D/S398D/S402D/T404D/S405D)
Sequence of UniProt Q14653 (whole entry, unmodified, looked up): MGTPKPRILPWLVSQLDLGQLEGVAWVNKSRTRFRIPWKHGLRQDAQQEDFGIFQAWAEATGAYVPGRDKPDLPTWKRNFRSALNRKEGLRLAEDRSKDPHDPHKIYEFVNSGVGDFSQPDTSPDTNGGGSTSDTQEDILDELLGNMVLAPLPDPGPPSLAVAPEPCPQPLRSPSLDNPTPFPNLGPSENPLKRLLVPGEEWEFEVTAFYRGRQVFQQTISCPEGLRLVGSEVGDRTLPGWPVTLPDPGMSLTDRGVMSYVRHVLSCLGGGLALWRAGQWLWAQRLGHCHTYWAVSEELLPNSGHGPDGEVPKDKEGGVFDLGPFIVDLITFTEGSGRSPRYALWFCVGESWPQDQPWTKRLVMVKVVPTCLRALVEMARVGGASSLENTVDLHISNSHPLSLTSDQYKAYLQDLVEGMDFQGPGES
Strand	fitted relative affinity
GTAGGTCTCCTACTGCTTTAGTGCTAG	0.742 z-score
TTAGGTCTCAGACTGGATTAGTGCTAG	0.0552 z-score
GACGGTTTTCTTCTCCTGACGTGCTAG	4.15 z-score
TTAGGGATCCTACTGCTTTAGTGCTAG	0.97 z-score
TCATTTTTCTGAACCATACTGTGCTAG	2.12 z-score
AGTTAATCCCTCTCAGGCATGTGCTAG	0.762 z-score
GGCAATTTGAGTCACTGTGTGTGCTAG	-0.847 z-score
GACGATTTCAGTTTCTAGACGTGCTAG	3.87 z-score
TTAGGTATCCACTATCGGTTAGTGCTA	1.41 z-score
TTAGATATTGGGTTTCGATTAGTGCTA	1.59 z-score
TTAGGAATGCTTATCCTTTAGTGCTAG	0.126 z-score
GTAGGTATCGGGACTGGGTTAGTGCTA	1.24 z-score
GACGAACTGGGTTTCGGGACGTGCTAG	1.56 z-score
TTAGGACTGCTTATACTTTAGTGCTAG	-0.199 z-score
TTAGGTTTACTTTCCCTTTAGTGCTAG	7.19 z-score
AATTTTTTTTCTAACTAAAAGTGCTAG	1.4 z-score
TTAGATCTCAGTTTCGGTTAGTGCTAG	4.99 z-score
GACGGTATCGGGTATCTGGACGTGCTA	1.46 z-score
GACGATTTCAGTATCGCGACGTGCTAG	2.28 z-score
TTAGATATGGGGTATCGATTAGTGCTA	-0.203 z-score
CTCGTTTACATTTTCCAAATGTGCTAG	3.13 z-score
TAACTAATATTAAATATGTAGTGCTAG	0.326 z-score

Series 3 — technique: universal PBM; molecule type: double-stranded DNA, one strand shown; medium: in vitro; concentration: not given; direction: higher = stronger binding
Target: Sal-like protein 4, full length isoform B (SALL4, Homo sapiens, UniProt Q9UJQ4-2, residues 1-616)
Setting: 8-mer, flanks averaged, mean of replicates
Target sequence (chain): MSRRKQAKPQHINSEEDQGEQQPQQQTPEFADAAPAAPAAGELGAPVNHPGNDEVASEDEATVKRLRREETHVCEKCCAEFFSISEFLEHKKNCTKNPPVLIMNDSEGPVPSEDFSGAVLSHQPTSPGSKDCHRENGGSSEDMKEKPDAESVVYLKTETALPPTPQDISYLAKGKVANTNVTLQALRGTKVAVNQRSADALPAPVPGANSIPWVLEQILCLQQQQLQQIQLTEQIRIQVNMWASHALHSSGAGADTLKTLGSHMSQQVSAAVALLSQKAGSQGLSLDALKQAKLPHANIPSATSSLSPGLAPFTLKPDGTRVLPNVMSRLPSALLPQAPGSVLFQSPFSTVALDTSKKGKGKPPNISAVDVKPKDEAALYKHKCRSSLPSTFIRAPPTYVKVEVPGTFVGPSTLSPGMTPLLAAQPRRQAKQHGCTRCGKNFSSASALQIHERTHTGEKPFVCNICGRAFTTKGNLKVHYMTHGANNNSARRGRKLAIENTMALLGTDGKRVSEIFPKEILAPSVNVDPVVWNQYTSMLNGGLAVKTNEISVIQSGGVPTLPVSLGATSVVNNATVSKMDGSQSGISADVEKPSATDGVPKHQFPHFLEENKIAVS
Strand	E-score
AGCTAACG	-0.0929
ATGAATGA	0.331
CCAACGCC	-0.138
CCCAGGCC	-0.392
AAAGGTCG	0.122
CTGATAAA	0.209
CTCATCTA	0.0754
AATATTAG	0.426
CTTCGGGA	-0.0105
GTCTTGAA	0.0697
ACAAGGCG	-0.132
AGTCCACT	-0.0808
CCTTTCCA	-0.0224
CAATTCAG	0.0542
ATTCCTCG	-0.0812
CCAAAAGA	0.146
CATGGAAG	0.15
AGCAAGAA	0.124
ATAATAGC	0.262
ATTGTGAG	0.177

Series 4 — technique: RNA Bind-n-Seq; molecule type: RNA; medium: in vitro; concentration: 20 nM; setting: 6-mer, flanks averaged, single round; together with: 150 mM LiCl; baseline: input library; direction: higher = stronger binding
Target: TAR DNA-binding protein 43, full length, His tag (TARDBP, Homo sapiens, UniProt Q13148, residues 1-414)
Strand	6-mer enrichment (R)
AAAUGC	0.896
CGGGCG	1.06
CUUGCU	0.97
AGCCUA	0.859
CAGAUC	0.821
ACGCUC	0.82
GGGGUA	1.26
GGAGUA	1.06
GAUAUG	1.01
UGUUUG	1.79
ACCGUC	0.84
UAGUGC	1.01
GCCUGU	0.99
ACAUCU	0.828
CUGCUU	0.949
GAUUGC	0.925
AUACGA	0.79
GACGGC	0.927
GCCAUA	0.908
AACGAA	0.809
CUUUUC	1.08
AUAAAA	0.945
GUGUAC	1.08
GUUAUU	1.15
UGGCUA	0.93

Series 5 — technique: protein binding microarray; molecule type: double-stranded DNA, one strand shown; medium: in vitro; concentration: not given; baseline: not given; direction: higher = stronger binding
Target: Histone acetyltransferase KAT6A, winged helix 1, GST fusion (KAT6A, Homo sapiens, UniProt Q92794, residues 1-85)
Setting: 8-mer, flanks averaged, mean of 2 arrays, mostly near background
Residues (chain): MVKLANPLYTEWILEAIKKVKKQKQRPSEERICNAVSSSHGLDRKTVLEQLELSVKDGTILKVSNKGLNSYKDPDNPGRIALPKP
Strand	E-score
CCATTCAG	-0.156
GCGCACGA	0.261
ACCCACAG	-0.142
AGCGATGC	0.192
CCCTACAG	-0.105
GAGGCGCA	0.238
CTATCAGA	-0.0452
AAATTGCA	-0.23
GAAGTAGC	0.0067
AGCCTGTA	-0.0583
CCAATAGG	-0.0888
ACTAAACA	-0.222
CCCCTAGA	-0.219
AAAAGTGG	-0.154
CGTGTAAA	-0.0542
CATATGGG	-0.0336
CATCTCCA	-0.168

Series 6 — target: CCNB2, cyclin fold, Cln2 fusion (human); technique: yeast growth competition, sequencing; medium: yeast; setting: strong parent motif; baseline: not given; direction: higher = stronger binding
Starting sequence: E2F1 docking peptide (human); PPVKRRLDFETDH; partner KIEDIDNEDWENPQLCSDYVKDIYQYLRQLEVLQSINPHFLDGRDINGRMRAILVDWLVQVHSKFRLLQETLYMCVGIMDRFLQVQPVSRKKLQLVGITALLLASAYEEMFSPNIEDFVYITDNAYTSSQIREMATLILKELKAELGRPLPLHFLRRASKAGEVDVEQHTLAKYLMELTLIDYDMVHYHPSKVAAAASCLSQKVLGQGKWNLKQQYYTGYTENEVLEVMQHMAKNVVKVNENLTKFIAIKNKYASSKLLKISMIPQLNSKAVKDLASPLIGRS
Substitution	normalised enrichment score
PPVKRQLDFETDH [R6Q]	2.61
PPVKRRADFETDH [L7A]	0.389
PPLKRRLDFETDH [V3L]	3.19
PPVKRRLDFEADH [T11A]	3.4
PPVGRRLDFETDH [K4G]	0.932
PPVKRRLDSETDH [F9S]	0.339
PPVKRRLDFECDH [T11C]	3.9
PPVKQRLDFETDH [R5Q]	2.01
PPVKRPLDFETDH [R6P]	-0.254
PMVKRRLDFETDH [P2M]	2.97
PPVKRRCDFETDH [L7C]	0.263
PPVKTRLDFETDH [R5T]	1.3
PPVKRRLDFETYH [D12Y]	3.58
PPVKRGLDFETDH [R6G]	0.375
PPVKRRLDYETDH [F9Y]	0.862
PPVCRRLDFETDH [K4C]	2.79
PPVKRRLDFGTDH [E10G]	3.58
PPVKRRLPFETDH [D8P]	0.794
PPVKNRLDFETDH [R5N]	0.708
PPVKRRLDFETLH [D12L]	3.16
PPVKRRLDRETDH [F9R]	0.212
PPVKLRLDFETDH [R5L]	1.63
PPVKRRLMFETDH [D8M]	2.72
PPVKRRLSFETDH [D8S]	3.12
PPVKRRLDFQTDH [E10Q]	2.63

For quick reference, copied from above (series 2):
Strand	fitted relative affinity
GACGGTTTTCTTCTCCTGACGTGCTAG	4.15 z-score
TTAGGGATCCTACTGCTTTAGTGCTAG	0.97 z-score
TCATTTTTCTGAACCATACTGTGCTAG	2.12 z-score
AGTTAATCCCTCTCAGGCATGTGCTAG	0.762 z-score
GGCAATTTGAGTCACTGTGTGTGCTAG	-0.847 z-score
GACGATTTCAGTTTCTAGACGTGCTAG	3.87 z-score
TTAGGTATCCACTATCGGTTAGTGCTA	1.41 z-score
TTAGATATTGGGTTTCGATTAGTGCTA	1.59 z-score
TTAGGAATGCTTATCCTTTAGTGCTAG	0.126 z-score
GTAGGTATCGGGACTGGGTTAGTGCTA	1.24 z-score
GACGAACTGGGTTTCGGGACGTGCTAG	1.56 z-score
TTAGGACTGCTTATACTTTAGTGCTAG	-0.199 z-score
TTAGGTTTACTTTCCCTTTAGTGCTAG	7.19 z-score
AATTTTTTTTCTAACTAAAAGTGCTAG	1.4 z-score
TTAGATCTCAGTTTCGGTTAGTGCTAG	4.99 z-score
GACGGTATCGGGTATCTGGACGTGCTA	1.46 z-score
GACGATTTCAGTATCGCGACGTGCTAG	2.28 z-score
